Measurements from different studies.
Protocols differ between the studies behind these lines. ± marks the error that the study gave.

Under “log2 fold change”, `Cc1ncsc1-c1ccc(C(C)NC(=O)C2CC(O)CN2C(=O)C(NC(=O)CCCCCCCCCCN2CCCC(Nc3ncc(Cl)c(Nc4ccccc4S(=O)(=O)C(C)C)n3)C2)C(C)(C)C)cc1` (stereo not shown) is recorded as -1.1 (22Rv1; RNA-seq, refers to: THUMPD3 mRNA; concentration not given; reference: DMSO).
For `C[n+]1ccc(/C=N/NC(=O)c2cc(C(=O)N/N=C/c3cc[n+](C)cc3)ncn2)cc1`, the ΔTm was 3 ± 0.2 °C (MYC parallel G4 DNA; FRET melting; 1 µM, DNA 0.2 µM, added: duplex DNA competitor 10 µM).
For `COC1OC(C)C(O)C(OC2OC(C)C(O)C(OC3OC(C)C(O)C(OC4OC(C)C(O)C(OC5OC(C)C(O)C(OS(=O)(=O)O)C5OS(=O)(=O)O)C4OS(=O)(=O)O)C3OS(=O)(=O)O)C2OS(=O)(=O)O)C1OS(=O)(=O)O` (stereo not shown), “prothrombin time prolongation” read 0.98 fold (human plasma; 128 µg/mL; reference: control).
With `CC(C)(C)c1cc(-c2ccc3cccnc3n2)nc(-c2ccc3cccnc3n2)c1.[Cl-].[Cl-].[Ru+2].c1ccc2cc3nc4c5cccnc5c5ncccc5c4nc3cc2c1` the phototoxicity index was 3 (A-375; resazurin; added: light 523 nm, 100 J/cm2; reference: dark EC50 over light EC50).
The ΔTm of `O=C(N/N=C/c1cc[n+](Cc2ccccc2)c2ccccc12)c1cccc(C(=O)N/N=C/c2cc[n+](Cc3ccccc3)c3ccccc23)c1` is reported as 0.8 ± 0.2 °C (hp2 hairpin duplex DNA; FRET melting; 1 µM, added: ds26 10 µM).
For `C=CC(=O)Nc1cccc(Cn2ncc3cnc(Nc4cnn(CCOC)c4)nc32)c1`, “percent of control” read 100% (CDC2L1 human; binding, KINOMEscan; 100 nM; lower = stronger binding).
For `C[n+]1cc(/C=N/NC(=O)N/N=C/c2cc3ccccc3[n+](C)c2)cc2ccccc21`, the ΔTm was 0.9 ± 0.2 °C (hp2 hairpin duplex DNA; FRET melting; 1 µM, added: ds26 10 µM).
`Nc1ncc(-c2cc(-c3cnn(CC(F)(F)F)c3)ncc2F)nc1C(=O)NC1CNCC(F)C1` (stereo not shown) has a remaining binding of 56% (MUSK; KINOMEscan; 1 µM; reference: DMSO control).
With `CNS(=O)(=O)Nc1nccc(Cc2c(C)c3ccc(Oc4ncccc4F)cc3oc2=O)c1F` the IC50 was > 1000 nM (GA-10; cell viability; 7 days).
`C[n+]1cc(/C=N/NC(=O)c2cccc(C(=O)N/N=C/c3cc4ccccc4[n+](C)c3)n2)cc2ccccc21` has a ΔTm of 6.1 ± 0.6 °C (MYC parallel G4 DNA; FRET melting; 1 µM, DNA 0.2 µM, added: duplex DNA competitor 10 µM).
`Oc1c(/N=N/c2ccccn2)ccc2ccccc12` has an AC50 of 31.6 µM (Mus musculus; gene silencing, high-content imaging; LDR reporter GFP cells; retest run 2).
`COC1CN([C@H]2CC[C@H]([C@@]3(C)Oc4c(Cl)cc(C(=O)NCc5c(SC)cc(C)[nH]c5=O)c(C)c4O3)CC2)C1`: “log2 fold change” 1.77 (RNA-seq, refers to: ZBTB46; human, whole blood; dose not given, 24 h; reference: pretreatment baseline).
The relative co-enrichment of `C=CC(=O)N1[C@@H](c2ccc3c(c2)OCO3)c2[nH]c3ccccc3c2C[C@H]1C(=O)N1CCN(C)CC1` is reported as 152% (human cyclin E1 N112C-3xFLAG:CDK2; co-IP with TMT proteomics, refers to: SNRNP200; concentration not given, O75643; reference: wild type DMSO).
`O=C(CSc1cccc[n+]1[O-])c1ccccc1Br` has an Emax of 69% (Mus musculus; gene silencing, high-content imaging; LDR reporter GFP cells; 30 h, retest run 2).
`CN1CCCNC(=O)c2cccc(c2)C(=O)NCCCN(C)CCCNc2cccc3c2C(=O)c2cccc(c2C3=O)NCCC1`: “log2 fold change” 0.952 (SAS; RNA-Seq, refers to: DNAJB4 mRNA; 1 µM, 6 h; reference: untreated cells).
For `C[n+]1ccc(/C=N/NC(=O)N/N=C/c2cc[n+](C)cc2)cc1`, the ΔTm was 0.2 ± 0.1 °C (hp2 hairpin duplex DNA; FRET melting; 1 µM).

Excerpt of the above:
The relative co-enrichment of `C=CC(=O)N1[C@@H](c2ccc3c(c2)OCO3)c2[nH]c3ccccc3c2C[C@H]1C(=O)N1CCN(C)CC1` is reported as 152% (human cyclin E1 N112C-3xFLAG:CDK2; co-IP with TMT proteomics, refers to: SNRNP200; concentration not given, O75643; reference: wild type DMSO).
`O=C(CSc1cccc[n+]1[O-])c1ccccc1Br` has an Emax of 69% (Mus musculus; gene silencing, high-content imaging; LDR reporter GFP cells; 30 h, retest run 2).
`CN1CCCNC(=O)c2cccc(c2)C(=O)NCCCN(C)CCCNc2cccc3c2C(=O)c2cccc(c2C3=O)NCCC1`: “log2 fold change” 0.952 (SAS; RNA-Seq, refers to: DNAJB4 mRNA; 1 µM, 6 h; reference: untreated cells).
